# Experimental data pooled from the literature.
# Protocols differ between the studies behind these lines. “And” joins repeats or separate records; there may be more than shown.
# Target: Cytochrome P450 3A4 (CYP3A4, Homo sapiens, UniProt P08684)
# Chain of UniProt P08684 (whole entry, looked up): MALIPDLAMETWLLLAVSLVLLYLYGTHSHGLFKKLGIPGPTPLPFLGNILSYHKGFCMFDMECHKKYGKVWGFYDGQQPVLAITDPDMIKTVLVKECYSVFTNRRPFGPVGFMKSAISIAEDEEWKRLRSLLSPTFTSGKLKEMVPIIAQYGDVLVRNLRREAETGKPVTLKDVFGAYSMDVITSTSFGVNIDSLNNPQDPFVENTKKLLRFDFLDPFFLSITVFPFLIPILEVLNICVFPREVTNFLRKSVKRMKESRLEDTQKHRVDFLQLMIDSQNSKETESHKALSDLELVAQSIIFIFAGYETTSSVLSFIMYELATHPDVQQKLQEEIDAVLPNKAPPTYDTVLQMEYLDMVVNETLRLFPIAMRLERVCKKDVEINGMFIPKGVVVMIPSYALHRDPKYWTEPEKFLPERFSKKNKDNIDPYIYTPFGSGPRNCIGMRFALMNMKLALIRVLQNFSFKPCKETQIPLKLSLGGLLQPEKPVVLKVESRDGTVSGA
# Action: inhibitor
Structure (SMILES),test,system,setting,IC50
C[C@@H](c1ccn(Cc2ccc(I)cc2)n1)[C@](O)(Cn1cnnn1)c1ccc(F)cc1F,enzyme activity,"human, liver microsomes",midazolam probe,8.04 µM
COc1ccc2nc(C)cc(OCC(=O)Nc3ccccc3OC)c2c1,enzyme activity,,added: VR substrate,> 50 µM
O=C(O)c1ccc(/C=C2\SC(=S)N(Cc3cccc(C(F)(F)F)c3)C2=O)cc1,enzyme activity,"human, liver microsomes",midazolam probe,26 µM
C[C@@H](c1ccn(Cc2ccc(Cl)c(Cl)c2)n1)[C@](O)(Cn1cnnn1)c1ccc(F)cc1F,enzyme activity,"human, liver microsomes",midazolam probe,5.18 µM
O=C(NC12CC3CC(CC(C3)C1)C2)c1cc2cc(Cl)ccc2[nH]1,enzyme activity,,added: VR substrate,> 50 µM
N=C(N)c1cccc(C[C@H](NS(=O)(=O)c2cccc(-c3ccc(Cl)cc3Cl)c2)C(=O)N2CCC(CCN)CC2)c1,enzyme activity,,testosterone probe,> 10 µM and 11.8 µM
C(#Cc1cncc(OC[C@@H]2CCN2)c1)c1ccccc1,enzyme activity,,,9.73 µM
Cc1ccc2nc(C(F)(F)F)c(C(=O)NCc3cccc(Cl)c3)n2c1,enzyme activity,,added: VG substrate,3.5 µM
C=CCc1cc2c(c(OC)c1OC)OCO2,"enzyme activity, fluorescence",,,8.9 to 9.2 µM
CCc1ccc([C@@H]2C[C@H](C(F)(F)F)n3ncc(C(=O)NCc4ccc(OC)cc4)c3N2)cc1,enzyme activity,,added: VR substrate,> 50 µM
COC(=O)c1ccc2c(c1)NC(=O)/C2=C(\Nc1ccc2c(c1)CCN2C(=O)CN1CCOCC1)c1ccccc1,,recombinant enzyme,"10 min, added: midazolam 2 µM",56.8 µM
C[C@@H](c1ccn(Cc2ccc(OC(F)(F)F)cc2)n1)[C@](O)(Cn1cnnn1)c1ccc(F)cc1F,enzyme activity,"human, liver microsomes",midazolam probe,19.8 µM
c1ccc(C2(CCNC3CCC4(SCCS4)c4ccccc43)CCOC3(CCCC3)C2)nc1 (stereo not shown),enzyme activity,"human, liver microsomes",testosterone probe,4.84 µM
